Measured values pooled from the literature.
Every numbered part comes from another study and shows a few of its results, in no order. Changes are numbered by the printed parent chain.

Series 1 — target: CCNA1, cyclin fold, Cln2 fusion (human); technique: yeast growth competition, sequencing; medium: yeast; notes: strong parent motif; relative to: not given; reading: higher = stronger binding; parent: viral docking peptide; YKVKRRLVFGADD
Substitution	normalised enrichment score
D12G	1.11
R6M	0.963
G10C	1.23
G10N	1.63
V8K	1.36
L7H	0.0401
F9R	0.333
F9S	0.418
R5Q	0.443
D12K	0.833
R5G	-0.111
F9Y	1.44
G10P	1.79
V8M	1.18
D12I	1.04
K4W	-0.157
A11V	1.2
L7K	0.312
F9G	0.314
D12M	1.79
L7T	-0.0135
R6F	0.0783
D12F	0.898
K2D	1.15
A11K	0.868

Series 2 — technique: RNAcompete; form: RNA; medium: in vitro; tested at: 20 nM; notes: 7-mer, probes averaged, single round; relative to: mean of 7-mers; reading: higher = stronger binding
Target: PABPC1L2, full length, GST fusion (mouse, UniProt A0ABA7IW68)
Construct (chain): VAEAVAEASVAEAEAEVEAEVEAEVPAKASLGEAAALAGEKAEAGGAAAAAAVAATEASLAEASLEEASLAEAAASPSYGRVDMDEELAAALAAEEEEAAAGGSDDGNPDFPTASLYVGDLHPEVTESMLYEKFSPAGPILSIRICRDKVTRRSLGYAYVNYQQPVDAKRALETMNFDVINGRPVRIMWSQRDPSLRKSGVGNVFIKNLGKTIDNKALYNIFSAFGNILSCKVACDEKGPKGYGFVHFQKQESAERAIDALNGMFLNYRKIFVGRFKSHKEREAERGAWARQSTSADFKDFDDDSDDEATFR
Oligonucleotide	7-mer Z-score
AGGUAAG	0.0823
UUGCCCG	-0.385
UUAAUCC	-0.289
GGAUGAC	-0.0246
GCACUGU	-0.142
CCCGUAA	-0.0228
ACGACUU	-0.00652
CAGUCUA	-0.141

Series 3 — technique: protein-binding microarray; form: double-stranded DNA, one strand shown; medium: in vitro; tested at: not given; reading: higher = stronger binding
Target: Protein C-ets-1 (ETS1, Homo sapiens, UniProt P14921, residues 1-441, K379A, full length assumed)
Sequence of UniProt P14921 (whole entry, unmodified, looked up): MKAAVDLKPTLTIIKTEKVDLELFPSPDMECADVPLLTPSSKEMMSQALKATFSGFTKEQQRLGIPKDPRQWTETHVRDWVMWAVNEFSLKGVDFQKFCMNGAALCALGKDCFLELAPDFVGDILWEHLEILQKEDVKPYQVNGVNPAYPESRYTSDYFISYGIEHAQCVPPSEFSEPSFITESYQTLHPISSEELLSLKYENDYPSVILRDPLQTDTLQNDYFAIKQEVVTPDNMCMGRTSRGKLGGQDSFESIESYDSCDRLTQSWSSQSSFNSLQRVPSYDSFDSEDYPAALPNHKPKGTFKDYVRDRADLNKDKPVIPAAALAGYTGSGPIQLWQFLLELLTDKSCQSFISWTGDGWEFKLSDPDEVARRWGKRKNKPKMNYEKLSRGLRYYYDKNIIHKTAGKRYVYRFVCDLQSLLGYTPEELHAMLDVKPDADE
Notes: k-mer, scored over probes, only values ≥0.25
Oligonucleotide	E-score
ATAGTACG	0.276
CTAACGTA	0.279
ATATGATA	0.323
ACATATCA	0.259
ATTGTCGG	0.303
CCGGTAAC	0.425
ATTATTTC	0.253
ACTACAGA	0.281

Series 4 — technique: RNA Bind-n-Seq; form: RNA; medium: in vitro; tested at: not given; relative to: input RNA pool; reading: higher = stronger binding
Target: RING finger protein unkempt homolog, zinc fingers 1-6, GST-SBP tag (UNK, Homo sapiens, UniProt Q9C0B0, residues 30-357)
Sequence of UniProt Q9C0B0 (30-357, looked up): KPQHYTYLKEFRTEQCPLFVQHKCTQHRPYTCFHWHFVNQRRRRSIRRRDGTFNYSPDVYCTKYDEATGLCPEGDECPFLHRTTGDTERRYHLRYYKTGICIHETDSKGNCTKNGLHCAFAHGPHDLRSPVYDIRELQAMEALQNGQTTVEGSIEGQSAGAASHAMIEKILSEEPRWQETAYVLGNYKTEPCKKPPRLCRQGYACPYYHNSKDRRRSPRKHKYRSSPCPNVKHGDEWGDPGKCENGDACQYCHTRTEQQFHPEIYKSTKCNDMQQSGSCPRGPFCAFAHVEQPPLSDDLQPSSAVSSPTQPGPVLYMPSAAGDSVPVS
Notes: RNA with constant flanks, human and mouse sites, ends assumed
Shared flanks, not repeated: GGGAGUUCUACAGUCCGACGAUC … CAACAGAGGAUUGAGCAUCA
Oligonucleotide	bound/input enrichment [ratio]
CAUUUGAUGUAUGCGGUCAGAGAAGAAGUGGAGGUCCUCAAAGAGCAAAUCAAAGAACUAAUAGAGAAAAAUUCCCAGCUGGAGCAGGAGAACAAUCUGCUGAAGACACUGGCCAGUCCU	0.496
UUUUGUCUAGAAUGUUUGAGCUUAAACUGAAAGCCAUGGAACUAAGCACCUUUGGGCUGUCUUGUUGGGCCUAAGCUGCAGAGGAGGACUGACUGAGAAAGCUGCCUUGUCUAUAAAGAC	0.177
CUGAUAAGUCCAGAUGGACUGAUGGACAUCUGUUGAUCUAUGUGUAACUUCUAAAAUUGGUAUCGUAUCCACAGAGUGUAUAAUUUAAACUAACCACAGAGCUUUACAUCUUCAUUUCGA	0.123
UGUACAAACCCCAUAACGCCCCUCUGCACACAGCCCGACCAAGUUAUUAAAGGGGGCGCUAGUAUUAUUCAGUGCCACAUCCUAAAUGACAAGCGACACAUAUUAACCAAAGAUACGAAU	1.13
UCUUCUGUUAUCCCUGGGGGUGCUCAGGUUCACUUGAUUGUCUGUAUUUCUGUGUGGUUGUAGCAAGGACUCAGCCUCAUGUAGCACGAAUAGGGGUGUGGUUCAUGGCGUGUUGACCCA	0.328
CGCUCAGAAUAAAAAUUCUUUGUGCAACCUAUGUAAAUGUAAAUAUUCGAGACAUUGAUAAGAUCUAUGUUCGAACAGGUAUCUACCAUGGAGGAGAACCCUUAUGUGACAAUGUGAACA	0.163
AAAUUUAAAAAUUCUUUCUGUUGUACAGAAUUAAAUGAGGAAAACAAACAAUCUCAUUCGUUUAGUUUGCAGACUCCUUGUUCAAAAGGUAGUGAAUUAAGAACAAUUAAUAAGAUUUCU	3.44
CAGAAGAGUGCCCUGGUCAAGCGGCUCAAAGGGGCUCUAAUGCUAGAAAAUUUACAGAAACACUCAACACCCCAUGCUGCAUUCCAGCCAAAUUCCCAGAUUGGUGAGGAAAUGAGCCAG	15.2

Series 5 — target: vanadate, free oxyanion; technique: microfluidic competitive inhibition; medium: in vitro, cell-free expressed; tested at: not given; reading: lower = stronger binding
Notes: derived from inhibition constants, unchanged parent 676 nM
Parent: PafA, mature enzyme, eGFP fusion (Elizabethkingia meningoseptica, UniProt Q9KJX5); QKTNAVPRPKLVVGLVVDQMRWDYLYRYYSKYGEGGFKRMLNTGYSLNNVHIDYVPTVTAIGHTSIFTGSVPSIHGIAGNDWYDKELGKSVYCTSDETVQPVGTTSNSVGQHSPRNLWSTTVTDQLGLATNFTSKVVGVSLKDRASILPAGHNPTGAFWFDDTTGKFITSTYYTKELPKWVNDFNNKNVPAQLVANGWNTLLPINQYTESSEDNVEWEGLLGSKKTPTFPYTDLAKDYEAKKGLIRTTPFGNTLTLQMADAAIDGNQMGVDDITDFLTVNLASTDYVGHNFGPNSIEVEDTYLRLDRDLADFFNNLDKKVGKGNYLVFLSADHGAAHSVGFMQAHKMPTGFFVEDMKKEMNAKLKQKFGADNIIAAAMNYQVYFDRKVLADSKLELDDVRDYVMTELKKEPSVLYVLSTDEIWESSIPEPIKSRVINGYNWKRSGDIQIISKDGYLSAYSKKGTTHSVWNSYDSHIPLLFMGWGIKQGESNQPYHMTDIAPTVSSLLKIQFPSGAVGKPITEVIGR
Substitution	oxyanion analog dissociation constant
D264G	644 nM
W180G	2.49 µM
S134G	682 nM

Mixed results — technique: cross-linking MS
Substance	partner	system	setting	endpoint	value
P4HA2 (Homo sapiens, UniProt O15460)	P4HB (Homo sapiens, UniProt P07237)		hits only	interaction screen	cross-linked
SMNDC1 (Homo sapiens, UniProt O75940)	SF3B2 (Homo sapiens, UniProt Q13435)	cell fractions	together with: DSSO	cross-linked residues	K177 to K570
REV3L (Homo sapiens, UniProt O60673)	PFDN1 (Homo sapiens, UniProt O60925)	cell fractions	together with: DSSO	cross-linked residues	K1205 to K26
BMS1 (Homo sapiens, UniProt Q14692)	NAT10 (Homo sapiens, UniProt Q9H0A0)		hits only	interaction screen	cross-linked

Some of these lines once more (series 4):
Oligonucleotide	bound/input enrichment [ratio]
CAGAAGAGUGCCCUGGUCAAGCGGCUCAAAGGGGCUCUAAUGCUAGAAAAUUUACAGAAACACUCAACACCCCAUGCUGCAUUCCAGCCAAAUUCCCAGAUUGGUGAGGAAAUGAGCCAG	15.2
UGUACAAACCCCAUAACGCCCCUCUGCACACAGCCCGACCAAGUUAUUAAAGGGGGCGCUAGUAUUAUUCAGUGCCACAUCCUAAAUGACAAGCGACACAUAUUAACCAAAGAUACGAAU	1.13
UCUUCUGUUAUCCCUGGGGGUGCUCAGGUUCACUUGAUUGUCUGUAUUUCUGUGUGGUUGUAGCAAGGACUCAGCCUCAUGUAGCACGAAUAGGGGUGUGGUUCAUGGCGUGUUGACCCA	0.328
UUUUGUCUAGAAUGUUUGAGCUUAAACUGAAAGCCAUGGAACUAAGCACCUUUGGGCUGUCUUGUUGGGCCUAAGCUGCAGAGGAGGACUGACUGAGAAAGCUGCCUUGUCUAUAAAGAC	0.177
CAUUUGAUGUAUGCGGUCAGAGAAGAAGUGGAGGUCCUCAAAGAGCAAAUCAAAGAACUAAUAGAGAAAAAUUCCCAGCUGGAGCAGGAGAACAAUCUGCUGAAGACACUGGCCAGUCCU	0.496
CUGAUAAGUCCAGAUGGACUGAUGGACAUCUGUUGAUCUAUGUGUAACUUCUAAAAUUGGUAUCGUAUCCACAGAGUGUAUAAUUUAAACUAACCACAGAGCUUUACAUCUUCAUUUCGA	0.123
CGCUCAGAAUAAAAAUUCUUUGUGCAACCUAUGUAAAUGUAAAUAUUCGAGACAUUGAUAAGAUCUAUGUUCGAACAGGUAUCUACCAUGGAGGAGAACCCUUAUGUGACAAUGUGAACA	0.163
